Measurements from different studies.
Lines come from different studies, so protocols differ. Several values in a cell are separate wells, animals, samples, runs or records.
Method: steady-state kinetics
B1: nitrilase Y142V (Rhodococcus rhodochrous, UniProt A4LA85); chain MVEYTNTFKVAAVQAQPVWFDAAKTVDKTVSIIAEAARNGCELVAFPEVFIPGYPYHIWVDSPLAGMAKFAVRYHENSLTMDSPHVQRLLDAARDHNIAVVVGISERDGGSLYMTQLIIDADGQLVARRRKLKPTHVERSVVGEGNGSDISVYDMPFARLGALNCWEHFQTLTKYAMYSMHEQVHVASWPGMSLYQPEVPAFGVDAQLTATRMYALEGQTFVVCTTQVVTPEAHEFFCENEEQRKLIGRGGGFARIIGPDGRDLATPLAEDEEGILYADIDLSAITLAKQAADPVGHYSRPDVLSLNFNQRRTTPVNTPLSTIHATHTFVPQFGALDGVRELNGADEQRALPSTHSDETDRATASI
B2: enzyme (Actinobacillus pleuropneumoniae, UniProt A3N2T3); chain MENENKPNVANFEAAVAAKDYEKACSELLLILSQLDSNFGGIHEIEFEYPAQLQDLEQEKIVYFCTRMATAITTLFSDPVLEISDLGVQRFLVYQRWLALIFASSPFVNADHILQTYNREPNRKNSLEIHLDSSKSSLIKFCILYLPESNVNLNLDVMWNISPELCASLCFALQSPRFVGTSTAFNKRATILQWFPRHLDQLKNLNNIPSAISHDVYMHCSYDTSVNKHDVKRALNHVIRRHIESEYGWKDRDVAHIGYRNNKPVMVVLLEHFHSAHSIYRTHSTSMIAAREHFYLIGLGSPSVDQAGQEVFDEFHLVAGDNMKQKLEFIRSVCESNGAAIFYMPSIGMDMTTIFASNTRLAPIQAIALGHPATTHSDFIEYVIVEDDYVGSEECFSETLLRLPKDALPYVPSALAPEKVDYLLRENPEVVNIGIASTTMKLNPYFLEALKAIRDRAKVKVHFHFALGQSNGITHPYVERFIKSYLGDSATAHPHSPYHQYLRILHNCDMMVNPFPFGNTNGIIDMVTLGLVGVCKTGAEVHEHIDEGLFKRLGLPEWLIANTVDEYVERAVRLAENHQERLELRRYIIENNGLNTLFTGDPRPMGQVFLEKLNAFLKEN
B3: YjiA C66A/C67A/E37A (Escherichia coli, UniProt P24203); chain MNPIAVTLLTGFLGAGKTTLLRHILNEQHGYKIAVIANEFGEVSVDDQLIGDRATQIKTLTNGCIAASRSNELEDALLDLLDNLDKGNIQFDRLVIECTGMADPGPIIQTFFSHEVLCQRYLLDGVIALVDAVHADEQMNQFTIAQSQVGYADRILLTKTDVAGEAEKLHERLARINARAPVYTVTHGDIDLGLLFNTNGFMLEENVVSTKPRFHFIADKQNDISSIVVELDYPVDISEVSRVMENLLLESADKLLRYKGMLWIDGEPNRLLFQGVQRLYSADWDRPWGDEKPHSTMVFIGIQLPEEEIRAAFAGLRK
B4: protein Y24F (uncultured bacterium HF130_AEPn_1, UniProt D0E8I5); chain MSLSNSSKVSVLISLLEKSRDLDFIGEAINQLEHSLQCAYFAQRSGADNEMVLAALLHDLGHYCNDTSFEDMGGYGVWQHEKVGADYLRGLGFSERVACLIEGHVAAKRYLVSSKASYLKNLSDASRKTLEYQGGPMDEGERRLFEEREDFKDCLKIRAWDEKGKQTDLKVPGPEHYRKMMEEHLSENQN
B5: enzyme W1065M (Limosilactobacillus reuteri, UniProt Q5SBN3); chain INGQQYYIDPTTGQPRKNFLLQNGNDWIYFDKDTGAGTNALKLQFDKGTISADEQYRRGNEAYSYDDKSIENVNGYLTADTWYRPKQILKDGTTWTDSKETDMRPILMVWWPNTVTQAYYLNYMKQYGNLLPASLPSFSTDADSAELNHYSELVQQNIEKRISETGSTDWLRTLMHEFVTKNSMWNKDSENVDYGGLQLQGGFLKYVNSDLTKYANSDWRLMNRTATNIDGKNYGGAEFLLANDIDNSNPVVQAEELNWLYYLMNFGTITGNNPEANFDGIRVDAVDNVDVDLLSIARDYFNAAYNMEQSDASANKHINILEDMGWDDPAYVNKIGNPQLTMDDRLRNAIMDTLSGAPDKNQALNKLITQSLVNRANDNTENAVIPSYNFVRAHDSNAQDQIRQAIQAATGKPYGEFNLDDEKKGMEAYINDQNSTNKKWNLYNMPSAYTILLTNKDSVPRVYYGDLYQDGGQYMEHKTRYFDTITNLLKTRVKYVAGGQTMSVDKNGILTNVRFGKGAMNATDTGTDETRTEGIGVVISNNTNLKLNDGESVVLHMGAAHKNQKYRAVILTTEDGVKNYTNDTDAPVAYTDANGDLHFTNTNLDGQQYTAVRGYANPDVTGYLAVWVPAGAADDQDARTAPSDEAHTTKTAYRSNAALDSNVIYEGFSNFIYWPTTESERTNVRIAQNADLFKSWGITTFELAPQYNSSKDGTFLDSIIDNGYAFTDRYDLGMSTPNKYGSDEDLRNALQALHKAGLQAIADWVPDQIYNLPGKEAVTVTRSDDHGTTWEVSPIKNVVYITNTIGGGEYQKKYGGEFLDTLQKEYPQLFSQVYPVTQTTIDPSVKIKEWSAKYFNGTNILHRGAGYVLRSNDGKYYNLGTSTQQFLPSQLSVQDNEGYGFVKEGNNYHYYDENKQMVKDAFIQDSVGNWYYFDKNGNMVANQSPVEISSNGASGTYLFLNNGTSFRSGLVKTDAGTYYYDGDGRMVRNQTVSDGAMTYVLDENGKLVSESFDSSATEAHPLKPGDLNGQK
B6: enzyme E217L/L163H/N249W (Thermobifida fusca, UniProt Q47RK4); chain MTDVYILDAVRTPFGRYGGALSGIRPDDLAAHVLRALAERSPGLDPAAVDDVFFGDANGAGEDNRNVARMAALLAGWPTSVPGVTLNRLCGSGMESVIAANRAIAVGDASLAVAGGVESMSRAPWVLPKPAQGFPTGHETLYSTTLGWRMVNPAMPEQWTVSHGESTEQVAATYGISRAEQDAFALRSHERAARAWAEGVFDAEITQIPGAELERDLSIRETSAEKLAALKPAFRPDGTITAGNASPLWDGAAALLIGDAAAAERVGREPLARIVSRGVAAVDPDVFGIGPVQAAEIALRRAGIGWDDLSVVELNEAFAAQSLACLKLWPDLDPEIVNPNGGAIAIGHPLGASGARIVGTLAHELHRRGGGWGLAAICIGVGQGLAVVLHR
B7: enzyme D392A (Acetivibrio thermocellus, UniProt A3DJ38); chain MKLTIPELSLVVLIGSSGSGKSTFAKKHFKPTEVISSDFCRGLVSDDENDQTVTGAAFDVLHYIVSKRLQLGKLTVVDATNVQESARKPLIEIAKDYHCFPVAVVFNLPEKVCQERNKNRTDRQVEEYVIRKHTQQLKKSIKGLQREGFRYVYILNSPEEVEEVVFERQPLWNNKKDEHGPFDIIGDIHGCYDELKMLLEKLGYLIEEVEGGVGSGKYRVTHPEGRKVLFLGDLVDRGPKITEVLKLVMGMVKSGIALCVPGNHDVKLLRKLNGRDVQITHGLDRTLEQLAKEPQEFIEEVKAFIDGLVSHYVLDDGKLVVAHAGMKEEFQGRGSGKVREFALYGETTGETDEYGLPVRYDWASDYRGKALVVYGHTPQAEVLKVNNTINIATGCVFGGKLTAYRYPEREIVDVKALKTYYEPAKPFLPKEDMAERFEARTDNDILDINDVLGKKIITTRLMSSITIHEENSIAALEVMSRFAADPHWLIYLPPTMSPCETSKKEGMLEHPIEAFEYFRTRGVGKVVCEQKHMGSRAVVIVCKDSQVAEKRFGVLDGTAGICYTRTGRHFFDDMQLEAELIDRVRKVLDKSGFWGDFNTDWVCLDCELMPWSAKAQKLLEEQYSAVGISGRVVLDEAVKLLKQASLNKTVSFDVSRQTSGKNADINELLQRFTERSEMMQKYVEAYRKYCWPVNSIDDLKLAPFHILATEGKVHSDKNHIWHMDTIAKYCTQDDSLIMATNHILVDVTDAESVDKGIKWWEDLTASGGEGMVVKPYDFIVKNGRELLQPAVKCRGREYLRIIYGPEYTMDENIERLRNRAVGKKRSLALREFSLGMEALERFVRNEPLYRVHECVFGVLALESEPVDPRL
B8: ATP8A1/CDC50A (Homo sapiens); chain MPTMRRTVSEIRSRAEGYEKTDDVSEKTSLADQEEVRTIFINQPQLTKFCNNHVSTAKYNIITFLPRFLYSQFRRAANSFFLFIALLQQIPDVSPTGRYTTLVPLLFILAVAAIKEIIEDIKRHKADNAVNKKQTQVLRNGAWEIVHWEKVAVGEIVKVTNGEHLPADLISLSSSEPQAMCYIETSNLDGETNLKIRQGLPATSDIKDVDSLMRISGRIECESPNRHLYDFVGNIRLDGHGTVPLGADQILLRGAQLRNTQWVHGIVVYTGHDTKLMQNSTSPPLKLSNVERITNVQILILFCILIAMSLVCSVGSAIWNRRHSGKDWYLNLNYGGASNFGLNFLTFIILFNNLIPISLLVTLEVVKFTQAYFINWDLDMHYEPTDTAAMARTSNLNEELGQVKYIFSDKTGTLTCNVMQFKKCTIAGVAYGHVPEPEDYGCSPDEWQNSQFGDEKTFSDSSLLENLQNNHPTAPIICEFLTMMAVCHTAVPEREGDKIIYQAASPDEGALVRAAKQLNFVFTGRTPDSVIIDSLGQEERYELLNVLEFTSARKRMSVIVRTPSGKLRLYCKGADTVIYDRLAETSKYKEITLKHLEQFATEGLRTLCFAVAEISESDFQEWRAVYQRASTSVQNRLLKLEESYELIEKNLQLLGATAIEDKLQDQVPETIETLMKADIKIWILTGDKQETAINIGHSCKLLKKNMGMIVINEGSLDGTRETLSRHCTTLGDALRKENDFALIIDGKTLKYALTFGVRQYFLDLALSCKAVICCRVSPLQKSEVVEMVKKQVKVVTLAIGDGANDVSMIQTAHVGVGISGNEGLQAANSSDYSIAQFKYLKNLLMIHGAWNYNRVSKCILYCFYKNIVLYIIEIWFAFVNGFSGQILFERWCIGLYNVMFTAMPPLTLGIFERSCRKENMLKYPELYKTSQNALDFNTKVFWVHCLNGLFHSVILFWFPLKALQYGTAFGNGKTSDYLLLGNFVYTFVVITVCLKAGLETSYWTWFSHIAIWGSIALWVVFFGIYSSLWPAIPMAPDMSGEAAMLFSSGVFWMGLLFIPVASLLLDVVYKVIKRTAFKTLVDEVQELEAKSQDPGAVVLGKSLTERAQLLKNVFKKNHVNLYRSESLQQNLLHGYAFSQDENGIVSQSEVIRAYDTTKQRPDEW
UniProt Q6XEC0, sequence (whole entry, looked up): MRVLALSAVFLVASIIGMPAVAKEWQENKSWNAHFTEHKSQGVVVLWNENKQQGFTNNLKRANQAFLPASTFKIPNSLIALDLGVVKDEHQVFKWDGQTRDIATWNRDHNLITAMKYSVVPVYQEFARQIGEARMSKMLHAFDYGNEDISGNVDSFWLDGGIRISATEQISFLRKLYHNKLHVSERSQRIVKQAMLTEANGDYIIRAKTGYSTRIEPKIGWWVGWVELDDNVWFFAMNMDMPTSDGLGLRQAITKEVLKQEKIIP
UniProt P30986, sequence (whole entry, looked up): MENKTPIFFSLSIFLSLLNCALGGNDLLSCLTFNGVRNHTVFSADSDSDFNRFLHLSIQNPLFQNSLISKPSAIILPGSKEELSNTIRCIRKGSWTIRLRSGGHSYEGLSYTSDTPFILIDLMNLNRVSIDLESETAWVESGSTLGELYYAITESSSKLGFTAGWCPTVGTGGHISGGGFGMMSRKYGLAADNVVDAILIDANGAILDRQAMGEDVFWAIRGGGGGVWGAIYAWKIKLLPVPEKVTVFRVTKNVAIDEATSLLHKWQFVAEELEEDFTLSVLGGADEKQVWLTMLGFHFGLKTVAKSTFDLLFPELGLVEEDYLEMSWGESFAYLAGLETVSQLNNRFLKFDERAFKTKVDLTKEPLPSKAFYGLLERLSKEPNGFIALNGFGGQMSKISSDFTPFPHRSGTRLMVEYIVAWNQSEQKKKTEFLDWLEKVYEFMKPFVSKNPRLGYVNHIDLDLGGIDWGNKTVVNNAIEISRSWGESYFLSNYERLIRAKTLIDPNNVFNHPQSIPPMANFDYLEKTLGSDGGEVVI
UniProt Q9NR63, sequence (whole entry, looked up): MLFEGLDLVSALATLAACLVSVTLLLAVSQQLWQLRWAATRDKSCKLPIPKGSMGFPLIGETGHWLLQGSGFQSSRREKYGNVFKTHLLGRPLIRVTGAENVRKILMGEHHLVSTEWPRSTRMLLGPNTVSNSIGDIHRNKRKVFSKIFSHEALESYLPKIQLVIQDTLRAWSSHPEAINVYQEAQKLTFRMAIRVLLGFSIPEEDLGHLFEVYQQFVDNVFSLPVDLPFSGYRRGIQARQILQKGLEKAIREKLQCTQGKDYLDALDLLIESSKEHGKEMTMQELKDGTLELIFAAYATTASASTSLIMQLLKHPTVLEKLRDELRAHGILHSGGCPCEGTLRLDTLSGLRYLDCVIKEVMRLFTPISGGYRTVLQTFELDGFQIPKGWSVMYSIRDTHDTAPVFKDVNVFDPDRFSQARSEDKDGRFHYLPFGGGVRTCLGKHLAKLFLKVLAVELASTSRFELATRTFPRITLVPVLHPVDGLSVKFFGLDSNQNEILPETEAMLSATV
UniProt P33378, sequence (whole entry, looked up): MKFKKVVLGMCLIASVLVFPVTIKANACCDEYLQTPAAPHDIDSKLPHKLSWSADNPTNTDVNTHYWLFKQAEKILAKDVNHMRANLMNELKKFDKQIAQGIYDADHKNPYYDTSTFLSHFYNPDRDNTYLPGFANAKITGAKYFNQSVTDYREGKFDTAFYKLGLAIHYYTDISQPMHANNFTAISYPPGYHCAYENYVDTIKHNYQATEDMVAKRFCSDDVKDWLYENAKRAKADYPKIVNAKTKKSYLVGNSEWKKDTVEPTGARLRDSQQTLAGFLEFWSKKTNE
UniProt C5B120, sequence (whole entry, looked up): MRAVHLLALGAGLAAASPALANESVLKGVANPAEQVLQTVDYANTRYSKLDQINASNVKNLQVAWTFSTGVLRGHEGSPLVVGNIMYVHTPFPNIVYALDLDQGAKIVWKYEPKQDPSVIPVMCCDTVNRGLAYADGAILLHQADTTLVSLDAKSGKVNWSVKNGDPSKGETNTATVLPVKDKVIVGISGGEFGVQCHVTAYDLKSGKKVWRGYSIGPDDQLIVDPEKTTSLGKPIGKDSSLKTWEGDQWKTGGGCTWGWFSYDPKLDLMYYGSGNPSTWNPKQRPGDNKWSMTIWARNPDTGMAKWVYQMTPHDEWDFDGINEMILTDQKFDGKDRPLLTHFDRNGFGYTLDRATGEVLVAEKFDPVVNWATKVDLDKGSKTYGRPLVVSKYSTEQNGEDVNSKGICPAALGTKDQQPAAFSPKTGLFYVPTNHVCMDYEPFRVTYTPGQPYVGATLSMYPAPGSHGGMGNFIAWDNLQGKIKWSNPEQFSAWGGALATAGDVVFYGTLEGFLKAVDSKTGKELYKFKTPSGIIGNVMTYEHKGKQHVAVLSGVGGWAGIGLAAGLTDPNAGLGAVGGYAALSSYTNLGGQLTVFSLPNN
UniProt P56926, sequence (whole entry, unmodified, looked up): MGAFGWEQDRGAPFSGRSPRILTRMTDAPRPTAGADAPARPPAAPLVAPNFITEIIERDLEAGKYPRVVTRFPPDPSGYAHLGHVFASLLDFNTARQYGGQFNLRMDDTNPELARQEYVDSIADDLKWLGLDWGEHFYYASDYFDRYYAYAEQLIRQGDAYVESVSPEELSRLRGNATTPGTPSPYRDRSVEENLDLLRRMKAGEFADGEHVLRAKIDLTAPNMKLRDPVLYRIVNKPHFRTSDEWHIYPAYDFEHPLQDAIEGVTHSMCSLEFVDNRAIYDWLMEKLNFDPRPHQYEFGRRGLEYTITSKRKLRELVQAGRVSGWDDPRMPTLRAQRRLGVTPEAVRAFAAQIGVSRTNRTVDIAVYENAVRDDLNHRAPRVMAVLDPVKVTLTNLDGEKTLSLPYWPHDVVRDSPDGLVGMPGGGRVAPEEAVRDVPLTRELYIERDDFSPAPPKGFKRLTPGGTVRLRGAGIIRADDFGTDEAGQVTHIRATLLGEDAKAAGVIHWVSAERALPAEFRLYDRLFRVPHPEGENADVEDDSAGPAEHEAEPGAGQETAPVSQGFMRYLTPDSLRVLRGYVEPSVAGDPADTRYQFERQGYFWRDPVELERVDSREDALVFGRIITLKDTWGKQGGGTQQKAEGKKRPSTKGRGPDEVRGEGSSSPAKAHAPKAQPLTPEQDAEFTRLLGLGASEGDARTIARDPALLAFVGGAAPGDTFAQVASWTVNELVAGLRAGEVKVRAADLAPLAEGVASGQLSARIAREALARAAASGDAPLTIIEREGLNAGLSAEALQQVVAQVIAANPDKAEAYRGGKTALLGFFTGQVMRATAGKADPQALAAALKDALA

Substance | substrate | pH | temperature | notes | added | Km
OXA-48 (Klebsiella pneumoniae, UniProt Q6XEC0) | C[C@@H](O)[C@H]1C(=O)N2C(C(=O)O)=C(S[C@@H]3CN[C@H](C(=O)N(C)C)C3)[C@H](C)[C@H]12 | pH 7.2 | 30 °C |  |  | 6 µM
enzyme (Deinococcus radiodurans, UniProt P56926) | NC(=O)CC[C@H](N)C(=O)O | pH 7.2 | 37 °C |  |  | 168 µM
B1 (nitrilase Y142V) | Cc1cccc(C#N)c1 | pH 7.5 | 25 °C |  |  | 470 µM
B2 (enzyme) | O=c1ccn([C@@H]2O[C@H](CO[P@@](=O)(O)O[P@@](=O)(O)O[C@H]3O[C@H](CO)[C@@H](O)[C@H](O)[C@H]3O)[C@@H](O)[C@H]2O)c(=O)[nH]1 | pH 7.2 | 37 °C | apparent |  | 126 µM
B3 (YjiA C66A/C67A/E37A) | Nc1nc2c(ncn2[C@@H]2O[C@H](COP(=O)(O)OP(=O)(O)OP(=O)(O)O)[C@@H](O)[C@H]2O)c(=O)[nH]1 | pH 7.6 | 37 °C | apo, anaerobic | MgCl2 5 mM | 100 µM
xoxF1 (Methylorubrum extorquens, UniProt C5B120) | CO |  | 30 °C |  |  | 22 µM
plcB (Listeria monocytogenes, UniProt P33378) | CCCCCC(=O)OC[C@H](COP(=O)([O-])OCC[N+](C)(C)C)OC(=O)CCCCC | pH 6 | 37 °C |  |  | 2800 µM
B4 (protein Y24F) | NC[C@H](O)P(=O)(O)O | pH 7 | 25 °C | NaCl 150 mM | O2, Fe(II) 100 µM, ascorbate 100 µM | 566 µM and 327 µM
B5 (enzyme W1065M) | OC[C@H]1O[C@@](CO)(O[C@H]2O[C@H](CO)[C@@H](O)[C@H](O)[C@H]2O)[C@@H](O)[C@@H]1O | pH 4.7 | 37 °C |  |  | 6200 µM
B6 (enzyme E217L/L163H/N249W) | CC(=O)SCCNC(=O)CCNC(=O)[C@H](O)C(C)(C)COP(=O)(O)OP(=O)(O)OC[C@H]1O[C@@H](n2cnc3c(N)ncnc32)[C@H](O)[C@@H]1OP(=O)(O)O | pH 7.4 | 37 °C |  |  | 2180 µM
rfbC (Campylobacter jejuni, UniProt Q0P8I4) | Nc1nc2c(ncn2[C@@H]2O[C@H](COP(=O)(O)OP(=O)(O)O[C@H]3O[C@H]([C@H](O)CO)C(=O)[C@H](O)[C@@H]3O)[C@@H](O)[C@H]2O)c(=O)[nH]1 | pH 7.5 | 30 °C |  |  | 136 µM
B7 (enzyme D392A) | Nc1ncnc2c1ncn2[C@@H]1O[C@H](CO)[C@H]2OP(=O)(O)O[C@H]21 | pH 7.5 | 45 °C |  |  | 100000 µM
BBE1 (Eschscholzia californica, UniProt P30986) | COc1ccc(C[C@H]2c3cc(O)c(OC)cc3CCN2C)cc1O | pH 9 | 25 °C | apparent |  | 0.27 µM
B8 (ATP8A1/CDC50A) | CCCCCCCC/C=C\CCCCCCCC(=O)OC[C@H](COP(=O)(O)OC[C@H](N)C(=O)O)OC(=O)CCCCCCC/C=C\CCCCCCCC | pH 7.5 | 37 °C |  | ATP 5 mM, MgCl2 12.5 mM, PC | 59.1 µM
enzyme (Delftia acidovorans, UniProt A9BQX8) | NC(=O)C1=CN([C@@H]2O[C@H](COP(=O)(O)OP(=O)(O)OC[C@H]3O[C@@H](n4cnc5c(N)ncnc54)[C@H](O)[C@@H]3O)[C@@H](O)[C@H]2O)C=CC1 |  |  | cofactor varied |  | 28.5 µM
enzyme (Homo sapiens, UniProt Q9NR63) | CC1=C(/C=C/C(C)=C/C=C/C(C)=C/C(=O)O)C(C)(C)CCC1 |  | 37 °C | not purified |  | 0.0188 µM
ω-transaminase A60V/E38Q/I154V/M128F/P9A/S87N/W58G (Pseudomonas jessenii) | O=C1CCc2ccccc21 | pH 8 | 56 °C | apparent | isopropylamine 1 M, PLP 0.05 mM | 1600 µM
